Measured values collected from several papers.
Lines come from different studies, so protocols differ. “And” joins repeats or separate records; there may be more than shown. Converted amounts (≈) assume the structure as drawn.
UCHL1: Ubiquitin carboxyl-terminal hydrolase isozyme L1 (UCHL1, Homo sapiens, UniProt P09936)
Sequence of UniProt P09936 (whole entry, looked up): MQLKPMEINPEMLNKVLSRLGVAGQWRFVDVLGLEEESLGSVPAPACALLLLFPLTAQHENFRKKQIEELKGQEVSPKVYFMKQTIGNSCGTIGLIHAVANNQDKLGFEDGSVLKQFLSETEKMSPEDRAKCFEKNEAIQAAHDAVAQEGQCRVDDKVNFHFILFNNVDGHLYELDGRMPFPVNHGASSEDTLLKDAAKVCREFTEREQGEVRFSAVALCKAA

`OC(Cn1cncn1)(Cn1cncn1)c1ccc(F)cc1F` gave an MIC of 3.12 µM (≈ 0.957 µg/mL) (Nakaseomyces glabratus; CG12, azole-susceptible, RPMI 1640; 24 h, 35 °C).
`CC(C)n1ncc2c(C(=O)NCC3(C)CNC3)cc(C3CC3)nc21` has a cell protection of -0.845% and 0.282% and 0.423% (Enterovirus D68; cytopathic effect; RD, US/KY/14-18953; 15 nM).
`COC(=O)c1ccc(CN2CCCC(CCC(=O)NCc3ccc(C)o3)C2)cc1` (stereo not drawn) gave an inhibition of -0.46% (Trypanosoma cruzi; reporter translation, Renilla luciferase mRNA translation; cell-free extract; 40 µM; relative to: DMSO).
With `CC(C)NCC(O)c1ccc(O)c(O)c1` (stereo not drawn) the sarcomere length was 1.57 µm (ventricular cardiomyocytes, C57BL/6 mouse; dose not given, 0.484 s).
`CCOC(=O)C1CCCN(Cc2ccc(-c3ccccc3)cc2)C1` (stereo not drawn) has an inhibition of -11.6% (Trypanosoma cruzi; reporter translation, Renilla luciferase mRNA translation; cell-free extract; 40 µM; relative to: DMSO).
`C=C1C(=O)O[C@H]2[C@H]1CC/C(C)=C/CC[C@@]1(C)O[C@@H]21` has an EC90 of 0.325 µM (Toxoplasma gondii; parasite growth; HFF, bradyzoite, alkaline-induced).
`N#CC(=Cc1cc(F)ccc1F)C(=O)Nc1ccc(F)cc1F` has a labelling of 19.9% (UCHL1; covalent, intact protein LC-MS; 12.5 µM).
With `COc1cc(C#CC(O)CC(C)C)ccc1O` (stereo not drawn) the biofilm formation was 75% (Pseudomonas aeruginosa; static biofilm; PA14; 10 µM, 24 h; relative to: DMSO).
`OC[C@H]1O[C@@H](O[C@@H]2[C@@H](O)[C@H](O[C@@H]3[C@@H](O)[C@H](O[C@@H]4[C@@H](O)[C@H](O[C@@H]5[C@@H](O)[C@H](O[C@H]6[C@H](O)[C@@H](CO)OC(O)[C@@H]6O)O[C@H](CO)[C@H]5O)O[C@H](CO)[C@H]4O)O[C@H](CO)[C@H]3O)O[C@H](CO)[C@H]2O)[C@H](O)[C@@H](O)[C@@H]1O` (stereo partly drawn) has a -TΔS of 21.9 kcal/mol (Bacteroides uniformis; binding, ITC; pH 7.0, 25 °C, middle domain).
`CCCCC[C@H](O)CC(=O)CCc1ccc(O)c(OC)c1` gave a biofilm formation of 83% (Pseudomonas aeruginosa; static biofilm; PA14; 10 µM, 24 h, static; relative to: DMSO).
`OC[C@H]1O[C@@H](O[C@@H]2[C@@H](O)[C@H](O[C@@H]3[C@@H](O)[C@H](O[C@H]4[C@H](O)[C@@H](CO)OC(O)[C@@H]4O)O[C@H](CO)[C@H]3O)O[C@H](CO)[C@H]2O)[C@H](O)[C@@H](O)[C@@H]1O` (stereo partly drawn) has a ΔG of -26.9 kcal/mol (Bacteroides uniformis; binding, ITC; pH 7.0, 25 °C, middle domain).
`O=C(C#Cc1ccc(F)c(F)c1)c1cccc(Cl)c1` has a mRNA level of 49% (Pseudomonas aeruginosa; RT-qPCR, measured: phzC1; biofilm cells; 10 µM, 24 h; relative to: untreated).
For `OC(CCN1CCCCC1)(c1ccccc1)C1CC2C=CC1C2` (stereo not drawn), “EEG Alpha2-power Pz-O1” read 3 µV² (resting-state EEG; healthy elderly humans; oral, 4 mg, eyes open, LS mean).
`c1coc(-c2n[nH]cc2-c2ccnc3ccccc23)c1` — result for “log2 fold change”: -0.22 (BUB1 (Candida albicans); kinase binding, MIB/MS competition; Candida albicans lysate; 1 µM; relative to: DMSO).
For `Nc1nc(-c2ccccc2)nc2[nH]nc(Nc3ccc(C(F)(F)F)cc3)c12`, the clinical score was 0.11 (coxsackievirus B3; 31-1-93, NMRI mice, CVB3 chronic myocarditis; oral, 100 mg/kg twice daily, day 13, dosed days 1 to 7, score scale 0 to 7; direction not given).
`Cc1ccc(S(=O)(=O)/C=C/C#N)cc1` has an EC90 of 6.17 µM (Toxoplasma gondii; parasite growth; HFF, bradyzoite, alkaline-induced).
With `OC[C@H]1O[C@@H](O[C@@H]2[C@@H](O)[C@H](O[C@@H]3[C@@H](O)[C@H](O[C@@H]4[C@@H](O)[C@H](O[C@H]5[C@H](O)[C@@H](CO)OC(O)[C@@H]5O)O[C@H](CO)[C@H]4O)O[C@H](CO)[C@H]3O)O[C@H](CO)[C@H]2O)[C@H](O)[C@@H](O)[C@@H]1O` (stereo partly drawn) the ΔH was -41.1 kcal/mol (Bacteroides uniformis; binding, ITC; pH 7.0, 25 °C, middle domain).
With `CCC(C)C(=O)C#Cc1ccc(O)c(OC)c1` (stereo not drawn) the biofilm formation was 80% (Pseudomonas aeruginosa; static biofilm; PA14; 10 µM, 24 h, static; relative to: DMSO).
For `Oc1ncnc2[nH]ncc12`, the EC90 was 30 µM (Toxoplasma gondii; parasite growth, luciferase reporter; HFF, tachyzoite; 72 h).
`Oc1ccccc1-c1n[nH]cc1-c1ccnc2ccccc12` — result for “log2 fold change”: -0.15 (FUN31 (Candida albicans); kinase binding, MIB/MS competition; Candida albicans lysate; 1 µM; relative to: DMSO).
The EC90 of `COC(=O)C1=C(C)NC(C)=C(C(=O)OC(C)(C)CN(C)CCC(c2ccccc2)c2ccccc2)C1c1cccc([N+](=O)[O-])c1` (stereo not drawn) is reported as 33.1 µM (Toxoplasma gondii; parasite growth, luciferase reporter; HFF, tachyzoite; 72 h).
For `COc1ccccc1C(=O)C#Cc1ccc(F)c(F)c1`, the mRNA level was 35% (Pseudomonas aeruginosa; RT-qPCR, measured: rhlA; biofilm cells; 10 µM, 24 h; relative to: untreated).
`Clc1ccc(C(c2ccc(Cl)cc2)n2cc[n+](CC(OCc3ccc(Cl)cc3Cl)c3ccc(Cl)cc3Cl)c2)cc1` (stereo not drawn) has an EC50 of 7.75 µM (Toxoplasma gondii; parasite growth, luciferase reporter; HFF, tachyzoite; 72 h).
`CC(Cl)C(=O)NCc1cccc(N2C(=O)NC3(CCCC3)C2=O)c1` (stereo not drawn) gave a labelling of 9.72% (UCHL1; covalent, intact protein LC-MS; 12.5 µM).

Some of these lines once more:
With `OC[C@H]1O[C@@H](O[C@@H]2[C@@H](O)[C@H](O[C@@H]3[C@@H](O)[C@H](O[C@@H]4[C@@H](O)[C@H](O[C@H]5[C@H](O)[C@@H](CO)OC(O)[C@@H]5O)O[C@H](CO)[C@H]4O)O[C@H](CO)[C@H]3O)O[C@H](CO)[C@H]2O)[C@H](O)[C@@H](O)[C@@H]1O` (stereo partly drawn) the ΔH was -41.1 kcal/mol (Bacteroides uniformis; binding, ITC; pH 7.0, 25 °C, middle domain).
With `CCC(C)C(=O)C#Cc1ccc(O)c(OC)c1` (stereo not drawn) the biofilm formation was 80% (Pseudomonas aeruginosa; static biofilm; PA14; 10 µM, 24 h, static; relative to: DMSO).
For `Oc1ncnc2[nH]ncc12`, the EC90 was 30 µM (Toxoplasma gondii; parasite growth, luciferase reporter; HFF, tachyzoite; 72 h).
